Published values collected from several papers.
Each numbered part is a random draw from the data of one study; scales do not carry over between parts.
UniProt P57078, sequence (whole entry, looked up): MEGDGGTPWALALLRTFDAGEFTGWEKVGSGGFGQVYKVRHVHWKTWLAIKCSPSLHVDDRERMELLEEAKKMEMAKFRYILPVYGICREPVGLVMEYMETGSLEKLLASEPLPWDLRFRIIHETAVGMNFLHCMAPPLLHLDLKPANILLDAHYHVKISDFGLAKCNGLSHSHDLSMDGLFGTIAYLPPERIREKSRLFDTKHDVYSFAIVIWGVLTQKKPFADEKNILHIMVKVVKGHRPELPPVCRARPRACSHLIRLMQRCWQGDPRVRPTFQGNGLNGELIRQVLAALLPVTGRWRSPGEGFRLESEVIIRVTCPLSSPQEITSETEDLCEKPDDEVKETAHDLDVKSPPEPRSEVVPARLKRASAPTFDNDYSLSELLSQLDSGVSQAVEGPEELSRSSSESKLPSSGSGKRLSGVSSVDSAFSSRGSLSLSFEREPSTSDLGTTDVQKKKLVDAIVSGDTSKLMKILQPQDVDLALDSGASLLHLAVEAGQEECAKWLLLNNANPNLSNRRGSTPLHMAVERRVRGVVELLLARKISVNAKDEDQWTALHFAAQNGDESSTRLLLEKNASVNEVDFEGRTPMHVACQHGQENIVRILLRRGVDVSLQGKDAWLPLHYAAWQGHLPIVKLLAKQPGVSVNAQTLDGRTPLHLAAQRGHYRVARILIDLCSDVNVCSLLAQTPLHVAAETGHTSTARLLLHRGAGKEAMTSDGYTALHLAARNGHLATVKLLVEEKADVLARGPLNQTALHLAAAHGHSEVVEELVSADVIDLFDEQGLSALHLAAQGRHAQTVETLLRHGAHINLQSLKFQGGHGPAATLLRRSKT
UniProt Q92772, sequence (whole entry, looked up): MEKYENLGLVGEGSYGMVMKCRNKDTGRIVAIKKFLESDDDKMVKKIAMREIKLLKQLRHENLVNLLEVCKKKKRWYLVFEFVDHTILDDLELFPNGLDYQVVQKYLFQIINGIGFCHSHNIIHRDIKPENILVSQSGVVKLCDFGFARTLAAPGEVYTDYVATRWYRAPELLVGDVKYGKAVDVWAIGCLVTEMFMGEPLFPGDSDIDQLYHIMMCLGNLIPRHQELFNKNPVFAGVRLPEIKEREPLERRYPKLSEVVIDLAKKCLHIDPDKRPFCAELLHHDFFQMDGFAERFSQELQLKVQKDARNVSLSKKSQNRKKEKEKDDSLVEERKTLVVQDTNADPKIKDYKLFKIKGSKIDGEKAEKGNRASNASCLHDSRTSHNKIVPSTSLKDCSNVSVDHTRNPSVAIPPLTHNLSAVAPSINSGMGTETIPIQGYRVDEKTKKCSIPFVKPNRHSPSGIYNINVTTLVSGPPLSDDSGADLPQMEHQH
UniProt O14730, sequence (whole entry, looked up): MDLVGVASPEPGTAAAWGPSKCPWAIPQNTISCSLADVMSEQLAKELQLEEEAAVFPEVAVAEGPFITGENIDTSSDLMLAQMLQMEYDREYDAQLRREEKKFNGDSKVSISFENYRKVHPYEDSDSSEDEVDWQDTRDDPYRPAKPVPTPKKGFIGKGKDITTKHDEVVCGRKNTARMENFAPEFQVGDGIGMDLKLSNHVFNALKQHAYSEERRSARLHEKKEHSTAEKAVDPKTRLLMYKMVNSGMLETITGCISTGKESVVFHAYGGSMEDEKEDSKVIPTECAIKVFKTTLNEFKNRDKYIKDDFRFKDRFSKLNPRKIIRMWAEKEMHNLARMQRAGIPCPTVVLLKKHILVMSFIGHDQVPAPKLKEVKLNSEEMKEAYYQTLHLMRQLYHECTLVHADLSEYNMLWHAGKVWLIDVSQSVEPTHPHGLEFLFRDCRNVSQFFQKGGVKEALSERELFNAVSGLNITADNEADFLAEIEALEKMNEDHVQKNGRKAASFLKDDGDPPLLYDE
UniProt Q13237, sequence (whole entry, looked up): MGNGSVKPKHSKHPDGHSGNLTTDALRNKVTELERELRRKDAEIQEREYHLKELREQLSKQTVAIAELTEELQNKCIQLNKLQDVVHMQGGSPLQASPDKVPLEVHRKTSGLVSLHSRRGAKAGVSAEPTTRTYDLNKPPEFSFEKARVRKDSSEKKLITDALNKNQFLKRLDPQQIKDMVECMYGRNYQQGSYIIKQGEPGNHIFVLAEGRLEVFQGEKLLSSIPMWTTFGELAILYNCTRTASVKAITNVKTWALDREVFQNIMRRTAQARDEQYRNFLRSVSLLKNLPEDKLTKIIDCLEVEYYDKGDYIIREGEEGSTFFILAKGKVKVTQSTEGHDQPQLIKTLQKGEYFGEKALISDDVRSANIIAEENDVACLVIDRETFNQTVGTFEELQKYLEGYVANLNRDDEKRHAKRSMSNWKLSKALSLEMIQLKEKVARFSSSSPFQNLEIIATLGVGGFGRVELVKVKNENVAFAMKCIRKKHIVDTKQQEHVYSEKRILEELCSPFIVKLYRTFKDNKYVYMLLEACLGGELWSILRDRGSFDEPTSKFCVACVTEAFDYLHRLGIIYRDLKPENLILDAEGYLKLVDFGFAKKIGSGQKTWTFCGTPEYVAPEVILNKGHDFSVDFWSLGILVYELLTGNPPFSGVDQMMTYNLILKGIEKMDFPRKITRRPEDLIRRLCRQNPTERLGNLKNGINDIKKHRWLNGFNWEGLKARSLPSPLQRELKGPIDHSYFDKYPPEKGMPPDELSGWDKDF
UniProt Q9UQ88, sequence (whole entry, looked up): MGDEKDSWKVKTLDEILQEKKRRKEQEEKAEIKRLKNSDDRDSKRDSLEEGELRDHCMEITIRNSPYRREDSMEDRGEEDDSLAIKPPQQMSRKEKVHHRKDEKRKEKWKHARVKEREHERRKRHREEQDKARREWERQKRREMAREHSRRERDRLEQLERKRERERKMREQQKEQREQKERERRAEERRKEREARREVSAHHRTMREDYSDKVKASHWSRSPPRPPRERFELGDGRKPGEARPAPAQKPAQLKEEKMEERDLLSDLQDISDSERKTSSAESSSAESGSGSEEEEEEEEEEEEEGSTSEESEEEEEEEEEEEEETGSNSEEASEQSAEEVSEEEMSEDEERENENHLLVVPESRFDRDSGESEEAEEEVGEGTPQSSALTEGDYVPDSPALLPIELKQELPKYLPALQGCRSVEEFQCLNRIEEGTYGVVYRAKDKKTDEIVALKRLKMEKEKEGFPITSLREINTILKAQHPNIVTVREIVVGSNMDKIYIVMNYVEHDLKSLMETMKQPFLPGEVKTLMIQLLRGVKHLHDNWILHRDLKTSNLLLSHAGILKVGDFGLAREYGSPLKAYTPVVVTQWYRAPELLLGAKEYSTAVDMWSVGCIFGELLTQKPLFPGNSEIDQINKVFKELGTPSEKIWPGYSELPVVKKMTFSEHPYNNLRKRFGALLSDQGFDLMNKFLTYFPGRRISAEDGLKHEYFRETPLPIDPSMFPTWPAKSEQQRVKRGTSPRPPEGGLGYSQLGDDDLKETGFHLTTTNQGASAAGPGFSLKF
UniProt P52333, sequence (whole entry, looked up): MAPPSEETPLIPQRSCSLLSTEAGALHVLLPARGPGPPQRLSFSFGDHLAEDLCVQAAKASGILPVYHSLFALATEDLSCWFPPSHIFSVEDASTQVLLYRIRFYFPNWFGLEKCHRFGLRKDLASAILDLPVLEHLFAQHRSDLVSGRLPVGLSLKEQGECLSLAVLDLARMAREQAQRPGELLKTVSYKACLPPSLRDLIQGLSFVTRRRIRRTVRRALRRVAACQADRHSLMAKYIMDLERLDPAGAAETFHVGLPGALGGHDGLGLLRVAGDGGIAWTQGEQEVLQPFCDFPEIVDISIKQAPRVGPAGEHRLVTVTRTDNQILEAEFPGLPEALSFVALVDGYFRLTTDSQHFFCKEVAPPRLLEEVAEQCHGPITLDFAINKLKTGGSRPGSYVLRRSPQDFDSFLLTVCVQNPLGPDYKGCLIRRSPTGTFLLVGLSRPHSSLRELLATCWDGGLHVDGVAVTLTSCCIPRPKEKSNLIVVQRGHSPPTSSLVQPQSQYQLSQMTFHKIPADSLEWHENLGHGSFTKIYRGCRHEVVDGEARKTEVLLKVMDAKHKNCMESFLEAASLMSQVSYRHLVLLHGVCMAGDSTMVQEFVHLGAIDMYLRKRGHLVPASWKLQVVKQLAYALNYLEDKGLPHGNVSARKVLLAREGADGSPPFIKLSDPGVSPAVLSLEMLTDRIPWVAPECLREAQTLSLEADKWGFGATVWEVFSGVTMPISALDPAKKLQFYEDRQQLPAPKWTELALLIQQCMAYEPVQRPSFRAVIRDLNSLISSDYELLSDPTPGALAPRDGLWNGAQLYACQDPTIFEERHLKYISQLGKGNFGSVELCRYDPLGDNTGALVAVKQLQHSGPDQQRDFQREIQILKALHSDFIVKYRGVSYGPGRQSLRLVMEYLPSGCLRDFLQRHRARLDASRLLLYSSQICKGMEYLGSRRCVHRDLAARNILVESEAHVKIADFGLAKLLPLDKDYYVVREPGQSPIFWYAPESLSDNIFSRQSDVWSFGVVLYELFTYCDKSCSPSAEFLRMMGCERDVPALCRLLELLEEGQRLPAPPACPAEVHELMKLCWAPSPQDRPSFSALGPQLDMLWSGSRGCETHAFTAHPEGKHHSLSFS
UniProt P78356, sequence (whole entry, looked up): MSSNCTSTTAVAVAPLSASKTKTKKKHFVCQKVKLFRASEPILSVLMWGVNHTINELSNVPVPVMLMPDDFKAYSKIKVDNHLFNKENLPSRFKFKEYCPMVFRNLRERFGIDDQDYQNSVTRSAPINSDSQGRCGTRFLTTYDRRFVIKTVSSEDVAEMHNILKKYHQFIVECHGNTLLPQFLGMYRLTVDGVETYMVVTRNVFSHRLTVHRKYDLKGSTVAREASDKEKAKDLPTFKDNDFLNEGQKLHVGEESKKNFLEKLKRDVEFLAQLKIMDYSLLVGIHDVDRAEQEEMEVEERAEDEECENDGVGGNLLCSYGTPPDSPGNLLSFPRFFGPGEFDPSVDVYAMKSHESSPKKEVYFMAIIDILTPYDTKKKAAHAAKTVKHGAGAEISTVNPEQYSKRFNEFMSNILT

Study 1 — effect on: enzyme activity; action: inhibitor; tested at: 0.5 µM; reference: control
Target: Serine/threonine-protein kinase VRK1 (VRK1, Homo sapiens, UniProt Q99986)
Target sequence (Q99986 1-396): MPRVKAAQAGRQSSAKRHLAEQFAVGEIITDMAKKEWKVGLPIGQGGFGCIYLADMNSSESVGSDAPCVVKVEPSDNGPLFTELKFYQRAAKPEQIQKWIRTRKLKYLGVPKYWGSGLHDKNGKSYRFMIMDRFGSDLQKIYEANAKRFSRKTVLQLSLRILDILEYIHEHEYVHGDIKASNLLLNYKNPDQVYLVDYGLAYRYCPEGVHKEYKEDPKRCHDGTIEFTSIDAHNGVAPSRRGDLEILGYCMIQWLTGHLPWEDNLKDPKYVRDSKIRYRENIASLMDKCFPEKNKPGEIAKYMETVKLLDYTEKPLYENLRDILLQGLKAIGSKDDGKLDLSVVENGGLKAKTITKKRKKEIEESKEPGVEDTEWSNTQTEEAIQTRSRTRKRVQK
Compound | remaining activity [%]
Cc1ccc(Nc2nccc(N(C)c3ccc4c(C)n(C)nc4c3)n2)cc1S(N)(=O)=O | 100
Cc1nc(-c2ccccc2)c(-c2ccncc2)o1 | 98.5
O=C(O)c1ccc2c3c1cccc3c(=O)n1c3ccccc3nc21 | 103
CCOC(=O)c1c(C)[nH]c(/C=C2\C(=O)Nc3ccccc32)c1C | 104
Cc1cccc(-c2[nH]c(C(C)(C)C)nc2-c2ccc3c(c2)OCO3)n1 | 97.5
O=c1c2ccccc2[nH]c(=S)n1CCN1CCC(=C(c2ccc(F)cc2)c2ccc(F)cc2)CC1 | 95.9
COc1cc2ncnc(Nc3ccc(F)c(Cl)c3)c2cc1OCCCN1CCOCC1 | 99.3
O=C1NC(=O)C(c2cn(CCCO)c3ncccc23)=C1c1cnccn1 | 86.4
N#CC(C#N)=C(N)/C(C#N)=C/c1ccc(O)cc1 | 103
NCCNc1ncc(C(N)=O)c(Nc2cccc(C(F)(F)F)c2)n1 | 96.8
CN(C)c1ccc(C=C2C(=O)Nc3ccccc32)cc1 | 89
OCC(O)CCON=C1C(c2c(O)[nH]c3ccccc23)=Nc2ccccc21 (stereo not shown) | 88.3
Oc1ccc(-c2nc(-c3ccncc3)c(-c3ccc(F)cc3)[nH]2)cc1 | 98.7
O=C(CCCc1ccc(-c2ccccc2F)cc1)Nc1ccc(O)cc1 | 95.5
C#Cc1cccc(Nc2ncnc3cc(OCCOC)c(OCCOC)cc23)c1 | 103
COc1cc2nccc(Oc3ccc(NC(=S)NC(=O)c4ccccc4C)cc3)c2cc1OC | 96.3

Study 2 — technique: competition with immobilised ligand; tested at: 1 µM
SMILES: CNC(=O)Nc1ccc2c(c1)CC[C@@]21OC(=O)N(CC(=O)N(Cc2ccc(F)cc2)[C@@H](C)C(F)(F)F)C1=O
target | assay | remaining binding
Serine/threonine-protein kinase RIO3 (RIOK3, Homo sapiens, UniProt O14730) | cell-free assay | 89%
Cyclin-dependent kinase-like 2 (CDKL2, Homo sapiens, UniProt Q92772) | binding | 100%
Calcium/calmodulin-dependent protein kinase type 1 (CAMK1, Homo sapiens, UniProt Q14012) | cell-free assay | 95%
Tyrosine-protein kinase ABL1, phosphorylated (ABL1, Homo sapiens, UniProt P00519, Y253F) | cell-free assay | 81%
Tyrosine-protein kinase JAK3, JH1 (JAK3, Homo sapiens, UniProt P52333) | cell-free assay | 73%
Tyrosine-protein kinase ABL1, phosphorylated (ABL1, Homo sapiens, UniProt P00519) | cell-free assay | 72%
Mast/stem cell growth factor receptor Kit (KIT, Homo sapiens, UniProt P10721, D816H) | cell-free assay | 67%
cGMP-dependent protein kinase 2 (PRKG2, Homo sapiens, UniProt Q13237) | cell-free assay | 86%
Serine/threonine-protein kinase Nek4 (NEK4, Homo sapiens, UniProt P51957) | cell-free assay | 94%
MAP kinase-interacting serine/threonine-protein kinase 1 (MKNK1, Homo sapiens, UniProt Q9BUB5) | cell-free assay | 67%
Epidermal growth factor receptor (EGFR, Homo sapiens, UniProt P00533, L858R/T790M) | cell-free assay | 91%
Dual specificity protein kinase CLK2 (CLK2, Homo sapiens, UniProt P49760) | cell-free assay | 97%
STE20/SPS1-related proline-alanine-rich protein kinase (STK39, Homo sapiens, UniProt Q9UEW8) | cell-free assay | 100%
Phosphatidylinositol 5-phosphate 4-kinase type-2 beta (PIP4K2B, Homo sapiens, UniProt P78356) | cell-free assay | 69%
Receptor-interacting serine/threonine-protein kinase 4 (RIPK4, Homo sapiens, UniProt P57078) | cell-free assay | 56%
Myosin-IIIb (MYO3B, Homo sapiens, UniProt Q8WXR4) | binding | 88%
Cyclin-dependent kinase 11A (CDK11A, Homo sapiens, UniProt Q9UQ88) | binding | 83%

Study 3 — technique: RNAcompete; molecule type: RNA; medium: in vitro; tested at: 20 nM; setting: 7-mer, probes averaged, single round; reference: mean of 7-mers; direction: higher = stronger binding
Target: PABPC1L2, full length, GST fusion (mouse, UniProt A0ABA7IW68)
Construct (chain): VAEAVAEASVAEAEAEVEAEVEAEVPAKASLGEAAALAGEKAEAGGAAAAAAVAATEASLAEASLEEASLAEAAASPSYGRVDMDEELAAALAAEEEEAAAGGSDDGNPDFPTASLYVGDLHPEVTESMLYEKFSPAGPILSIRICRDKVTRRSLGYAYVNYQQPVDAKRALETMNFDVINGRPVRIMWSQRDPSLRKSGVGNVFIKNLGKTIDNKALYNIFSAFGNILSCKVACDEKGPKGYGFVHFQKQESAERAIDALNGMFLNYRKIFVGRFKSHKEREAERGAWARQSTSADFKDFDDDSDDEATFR
Strand | 7-mer Z-score
AUGCUAU | -0.117
AGCACAA | 0.256
AGGGAAU | 0.129
UUAAAAA | 8.65
GUUUCGU | -0.605
AUUACCC | -0.278
CGUACUC | -0.396
UCCUGGU | -0.304

Study 4 — technique: aptamer microarray, sandwich; molecule type: DNA with 2'F-ANA; medium: in vitro; tested at: 200 nM; added: Cy3 exosite-II aptamer, 400 nM; direction: higher = stronger binding; strand: GGTTGGTGTGGTTGG
Target: Prothrombin, mature alpha-thrombin (F2, Homo sapiens, UniProt P00734)
Setting: whole 15-mer aptamer, many near background
Modification | mean fluorescence intensity
2'F-ANA at 2 6 8 9 11 12 13 14 15 | 133 a.u.
2'F-ANA at 1 2 5 6 7 8 9 12 14 15 | 57.7 a.u.
2'F-ANA at 3 4 8 9 11 14 | 282 a.u.
2'F-ANA at 1 4 5 10 13 15 | 48.2 a.u.
2'F-ANA at 1 4 6 7 8 13 | 89.1 a.u.
2'F-ANA at 2 3 9 10 15 | 383 a.u.
2'F-ANA at 1 4 9 10 11 12 14 15 | 51.9 a.u.
2'F-ANA at 2 4 5 6 7 8 9 10 12 14 | 42.5 a.u.

Excerpt of the above (study 1):
Compound | remaining activity [%]
OCC(O)CCON=C1C(c2c(O)[nH]c3ccccc23)=Nc2ccccc21 (stereo not shown) | 88.3
Oc1ccc(-c2nc(-c3ccncc3)c(-c3ccc(F)cc3)[nH]2)cc1 | 98.7
O=C(CCCc1ccc(-c2ccccc2F)cc1)Nc1ccc(O)cc1 | 95.5
C#Cc1cccc(Nc2ncnc3cc(OCCOC)c(OCCOC)cc23)c1 | 103
COc1cc2nccc(Oc3ccc(NC(=S)NC(=O)c4ccccc4C)cc3)c2cc1OC | 96.3
